Experimental data of several laboratories.
Every numbered part comes from another study and shows a few of its results, in no order. Positions count from the first letter of the parent shown.

Series 1
Target: Ras GTPase-activating protein-binding protein 1, full length (G3BP1, Homo sapiens, UniProt Q13283)
UniProt Q13283, sequence (whole entry, looked up): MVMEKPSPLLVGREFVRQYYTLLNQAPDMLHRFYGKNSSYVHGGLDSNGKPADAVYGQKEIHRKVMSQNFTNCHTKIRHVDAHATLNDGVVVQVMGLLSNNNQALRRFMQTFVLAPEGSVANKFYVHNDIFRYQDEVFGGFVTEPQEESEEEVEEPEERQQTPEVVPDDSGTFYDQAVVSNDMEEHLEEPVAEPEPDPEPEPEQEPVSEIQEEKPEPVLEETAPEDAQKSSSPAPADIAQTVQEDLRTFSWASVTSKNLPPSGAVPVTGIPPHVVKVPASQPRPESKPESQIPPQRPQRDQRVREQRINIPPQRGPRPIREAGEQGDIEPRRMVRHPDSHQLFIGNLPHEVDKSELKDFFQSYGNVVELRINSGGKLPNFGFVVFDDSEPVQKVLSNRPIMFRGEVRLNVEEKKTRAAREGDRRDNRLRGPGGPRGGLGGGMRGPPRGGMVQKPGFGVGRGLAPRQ
Method: RNA Bind-n-Seq
Form: RNA
Matrix: in vitro
Concentration: 200 nM
Notes: whole 134-nt RNA, ends assumed
Added: 150 mM LiCl
Reference: input library
Direction: higher = stronger binding
Each molecule: 7-deaza-guanosine replaces G
Constant ends, left off below: GGGAGUUCUACAGUCCGACGAUC … UGGAAUUCUCGGGUGUCAAGG
Strand | log2 enrichment
GUCCUGUGCUACACAUCGUAUGUACCGAAUCGGGGAAAGGGGUUUGGGGAAAAAGGGGAAAGUAUUAUGUUACGCCGUUCGGAUCUGCAC | -0.952
CAAGUCCUGUGCUACACAUCGUAUGUACCGAAUCGGGAAAAAAAGGGUGGGUGGGAAAGUAUUAUGUUACGCCGUUCGGAUCUGCACUUC | -0.181
GCAGGAAGUAAAAACAAAUGGAAGUGCUUCGGAUAGUGGCAGGGGUGGGGGUUGCUAAGGAAAGGGUGGGAUGGGAGUGGGUAAAGAGUU | -0.0401
UUGUCUACAGAACUAGACAGUACGGAUGGUGCCAAAGUUUUUAGUAAACAACCAGGAAGAAUCCAAAGAGUAGCAAGAGGAUCGGGUGUA | -2.27
CCUGUGCUACACAUCGUAUGUACCGAAUCGGGCCCCCCCGGGCCCCCCCGGCCCCCCCGGGAAAGUAUUAUGUUACGCCGUUCGGAUCUG | -0.209
CAGCAGCAGAGUGAGUGGAUUUUAUUUUUCGUUAUUGUUGGUGGUUUAAAAAAUUCCCCCCAUGUAAUUAUUGUGAACACCUUGCUUUGU | -0.932
GCAGGAAGUAAAAACAAAUGGAAAUGCUUCGGAUAGUGGCAGGGGUGGGGGUUGCUAAGGAAAGGGUGGGAUGGAAGUGGGUAAAGAGUU | -0.0453
CCUGUGCUACACAUCGUAUGUACCGAAUCGGCCCCCCGGGGCCCCCCGGGGCCCCCCGGGGAAAGUAUUAUGUUACGCCGUUCGGAUCUG | -2.24

Series 2
Target: MAFF, bZIP domain (human)
Method: DHFR protein complementation
Matrix: yeast
Notes: single substitutions, most at no-binding floor
Reference: wild-type JUN-FOS pair
Direction: higher = stronger binding
Starting sequence: JUN, bZIP domain (human); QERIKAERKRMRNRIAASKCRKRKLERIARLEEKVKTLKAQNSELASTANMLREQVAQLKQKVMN; partner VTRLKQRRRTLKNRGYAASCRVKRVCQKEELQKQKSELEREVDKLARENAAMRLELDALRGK
Change | binding fitness
L31K | -1.48 natural log
A46G | -1.46 natural log
E33S | -1.49 natural log
A29Q | -1.56 natural log
Q41I | -1.51 natural log
S43N | -1.46 natural log
A40V | -1.29 natural log
L31G | -1.49 natural log
K39T | -1.53 natural log
A29L | -1.51 natural log
E54V | -1.41 natural log

Series 3
Target: Max dimerization protein 1, bHLH-zipper, MAX partner unstated (MXD1, Homo sapiens, UniProt Q05195, residues 56-136)
Method: protein-binding microarray
Form: double-stranded DNA, one strand shown
Matrix: in vitro
Concentration: not given
Notes: k-mer, scored over probes, only values ≥0.25
Direction: higher = stronger binding
Target sequence (chain): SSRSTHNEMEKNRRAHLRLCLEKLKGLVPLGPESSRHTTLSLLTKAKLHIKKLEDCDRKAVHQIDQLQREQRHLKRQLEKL
Strand | E-score
ACGTGTAT | 0.414
ACCATGCG | 0.465
TCCCCACA | 0.319
CGTGTGTA | 0.413
CACGCCTC | 0.297
ACACGTGC | 0.488
ACACGTGG | 0.491
ATGCACAC | 0.329
GCATGTGA | 0.425
GAGGCGCA | 0.252
GGGGTGGA | 0.302
CGCCATGC | 0.359
CACCGTGC | 0.273
GCATGACC | 0.31
ACGTGTGG | 0.419
GGGGCGGA | 0.307
AGCCATGC | 0.366

Series 4
Target: Sal-like protein 4, full length isoform B (SALL4, Homo sapiens, UniProt Q9UJQ4-2, residues 1-616)
Method: universal PBM
Form: double-stranded DNA, one strand shown
Matrix: in vitro
Concentration: not given
Notes: 8-mer, flanks averaged, mean of replicates
Direction: higher = stronger binding
Strand | E-score
AATACAAC | 0.247
AAATCACG | 0.0965
CATCTAAG | -0.0442
GAAAAGAC | 0.0727
AGTATGAA | 0.236
CTCAGGCA | -0.127
TCATTAGA | 0.189
CAAGTAGA | -0.069
CCAGTACC | -0.199
GCAACGGA | -0.079
GAGATTAC | -0.0152
GCCGTCCC | -0.231
CCCGTCTC | -0.321
GGCAGCAC | -0.19
GAGGACAC | -0.135
CACGGGAG | -0.174
CGGGGTGC | -0.316
CACTAGTA | 0.102
AAGGCGCC | -0.263
CGACCTAA | 0.0357
GCGTCGCC | -0.272
ACTGTGAA | 0.022

Series 5
Target: CCNF, cyclin fold, Cln2 fusion (human)
Method: yeast growth competition, sequencing
Matrix: yeast
Notes: strong parent motif
Reference: not given
Direction: higher = stronger binding
Starting sequence: SAMHD1 docking peptide (human); ASKSRVQLFKDDP; partner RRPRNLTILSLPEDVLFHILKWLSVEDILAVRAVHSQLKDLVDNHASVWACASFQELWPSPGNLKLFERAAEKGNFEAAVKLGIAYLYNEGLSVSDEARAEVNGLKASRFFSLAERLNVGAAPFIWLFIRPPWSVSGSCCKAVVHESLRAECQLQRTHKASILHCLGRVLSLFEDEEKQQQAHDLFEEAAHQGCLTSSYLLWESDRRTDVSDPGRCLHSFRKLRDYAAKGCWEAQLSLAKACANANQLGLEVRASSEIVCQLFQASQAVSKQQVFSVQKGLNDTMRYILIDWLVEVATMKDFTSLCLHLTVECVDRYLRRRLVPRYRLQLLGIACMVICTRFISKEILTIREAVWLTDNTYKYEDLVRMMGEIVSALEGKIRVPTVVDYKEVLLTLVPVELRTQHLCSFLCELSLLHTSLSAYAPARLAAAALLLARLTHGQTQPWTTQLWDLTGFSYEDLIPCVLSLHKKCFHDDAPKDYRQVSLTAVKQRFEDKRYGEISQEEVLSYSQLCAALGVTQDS
Change | normalised enrichment score
V6C | 0.873
L8S | 0.125
D11G | 1.19
D12P | 1.22
D12E | 1.7
D12H | 1.02
K3F | 1.96
D12T | 0.999
D11A | 0.787
Q7W | 0.597
L8T | -0.0761
F9D | 0.152
V6M | 0.728
S4V | 6.21
F9E | 0.214

Single results of other studies
Molecule | target | assay | system | setting | how to read | measurement | value
PhoQ, residues 284 288 289 292 302 303 GANMMA | PhoP, residues 12 14 15 18 19 TPLRH (Escherichia coli, UniProt P23836) | Sort-seq, item: YFP reporter | E. coli | PhoQ-PhoP variant library, added: 10 µM Mg2+ | reference: high Mg2+ state, higher = stronger signaling | fold induction | 0.972

Some of these lines once more (series 4):
Strand | E-score
TCATTAGA | 0.189
CAAGTAGA | -0.069
CCAGTACC | -0.199
GCAACGGA | -0.079
GAGATTAC | -0.0152
